Experimental data pooled from the literature.
A part holds a random share of what one study measured. Values joined by “and” are separate records of one study, mostly repeats; a detail may differ.
Chain of UniProt P11229 (whole entry, looked up): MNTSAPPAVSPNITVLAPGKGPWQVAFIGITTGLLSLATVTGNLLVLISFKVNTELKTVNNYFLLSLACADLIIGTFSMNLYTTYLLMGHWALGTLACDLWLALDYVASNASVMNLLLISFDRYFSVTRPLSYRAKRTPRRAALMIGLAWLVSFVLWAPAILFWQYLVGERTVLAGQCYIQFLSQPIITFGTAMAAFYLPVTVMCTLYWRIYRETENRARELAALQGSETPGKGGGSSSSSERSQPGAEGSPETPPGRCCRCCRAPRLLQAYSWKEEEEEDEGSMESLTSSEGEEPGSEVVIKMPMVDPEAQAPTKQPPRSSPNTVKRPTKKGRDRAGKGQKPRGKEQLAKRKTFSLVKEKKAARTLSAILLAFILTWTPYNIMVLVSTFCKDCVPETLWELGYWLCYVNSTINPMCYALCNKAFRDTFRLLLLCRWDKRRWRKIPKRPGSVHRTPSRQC

Series 1
Structure (SMILES): CO[C@@H]1[C@@H](OC(N)=O)[C@@H](O)[C@H](Oc2ccc3c(O)c(NC(=O)c4ccc(O)c(CC=C(C)C)c4)c(=O)oc3c2C)OC1(C)C
For RPE-1 BRCA1-/- PARPi-resistant R4; CellTiter-Glo; 50 µM, 6 d: viability read 81.5%.
It gave 27.2% for viability (MDA-MB-436; cell growth or viability, ATP luminescence; 50 µM, 6 days).
RPE-1 BRCA1-/- PARPi-resistant R4; CellTiter-Glo; 50 µM, 6 days — viability: 72.8%.
RPE-1 wild type; CellTiter-Glo; 50 µM, 6 days; reference: untreated — viability: 103% and 102%.
The viability was 35% and 50.8% and 42.5% and 30.5% and 41.6% and 47.9% (MDA-MB-436 PARPi-resistant; CellTiter-Glo; 50 µM, 6 days; reference: untreated).
The viability was 64.1% (RPE-1 BRCA1-/- PARPi-resistant R4; CellTiter-Glo; 150 µM, 6 d).
It gave 77.9% and 95.7% for viability (RPE-1 BRCA1-/- PARPi-resistant R3; CellTiter-Glo; 25 µM, 6 days).
The viability was 65.5% and 76.4% and 95.2% (RPE-1 BRCA1-/- PARPi-resistant R4; CellTiter-Glo; 25 µM, 6 days).

Series 2
Structure (SMILES): CN(C(=O)c1ccn2ncc(-c3ccc(C(N)=O)cc3)c2c1)c1ccc(C#N)cn1
Organism: Cryptosporidium parvum
Technique: time-kill
Cell line: HCT-8
Strain: nanoluciferase-expressing
Reading: higher = more parasites
For 0.00102 µM, 24 h: parasite luminescence read 221000 RLU and 241000 RLU.
It gave 270000 RLU and 217000 RLU for parasite luminescence (0.00914 µM, 24 h).
The parasite luminescence was 26300 RLU and 24200 RLU (0.2469 µM, 48 h).
For 0.00914 µM, 4 h: parasite luminescence read 69100 RLU and 89100 RLU.
The parasite luminescence was 180000 RLU and 143000 RLU (0.00914 µM, 72 h).
The parasite luminescence was 167000 RLU and 256000 RLU (0.00102 µM, 48 h).
The parasite luminescence was 113000 RLU and 115000 RLU (6.667 µM, 8 h).
The parasite luminescence was 193000 RLU and 194000 RLU (0.02743 µM, 24 h).

Series 3
SMILES: Cc1cc2c(C(N)=O)c(N)n(-c3c(C)ccc(O)c3C)c2nc1C
For NCI-H1568; cell proliferation; 3333.33 nM: inhibition read 73.3% and 74.5%.
The inhibition was 24.2% (HCC1569; automated immunoblotting, measured: CDK1 phospho-Thr14; concentration not given, 2 h after washout).
It gave 4.74% and 4.51% and 1.66% for inhibition (NCI-H1568; cell proliferation; 1.524 nM).
For SW1463; cell proliferation; 4.57 nM: inhibition read 6.49% and -0.25%.
Proto-oncogene tyrosine-protein kinase Src (SRC, Homo sapiens, UniProt P12931); kinase activity, inhibitor, HTRF; 0.04115 µM — inhibition: 83.5%.
For HCC1569; automated capillary immunoblot, measured: CDK1 phospho-Thr14; 0.46 nM: inhibition read 7.11%.

Further values, each from its own experiment
`CC(=O)N1CCC(c2ccc(C(=O)NC(=N)N)cc2C(F)(F)F)CC1` gave an inhibition of 12.4% (Muscarinic acetylcholine receptor M1 (CHRM1, Homo sapiens, UniProt P11229); binding, radioligand binding; 10 µM).

Some of these lines once more (series 2):
The parasite luminescence was 193000 RLU and 194000 RLU (0.02743 µM, 24 h).
The parasite luminescence was 113000 RLU and 115000 RLU (6.667 µM, 8 h).
